Published values from different studies.
A part holds a random share of what one study measured.
Sequence of UniProt Q9UBF8 (whole entry, looked up): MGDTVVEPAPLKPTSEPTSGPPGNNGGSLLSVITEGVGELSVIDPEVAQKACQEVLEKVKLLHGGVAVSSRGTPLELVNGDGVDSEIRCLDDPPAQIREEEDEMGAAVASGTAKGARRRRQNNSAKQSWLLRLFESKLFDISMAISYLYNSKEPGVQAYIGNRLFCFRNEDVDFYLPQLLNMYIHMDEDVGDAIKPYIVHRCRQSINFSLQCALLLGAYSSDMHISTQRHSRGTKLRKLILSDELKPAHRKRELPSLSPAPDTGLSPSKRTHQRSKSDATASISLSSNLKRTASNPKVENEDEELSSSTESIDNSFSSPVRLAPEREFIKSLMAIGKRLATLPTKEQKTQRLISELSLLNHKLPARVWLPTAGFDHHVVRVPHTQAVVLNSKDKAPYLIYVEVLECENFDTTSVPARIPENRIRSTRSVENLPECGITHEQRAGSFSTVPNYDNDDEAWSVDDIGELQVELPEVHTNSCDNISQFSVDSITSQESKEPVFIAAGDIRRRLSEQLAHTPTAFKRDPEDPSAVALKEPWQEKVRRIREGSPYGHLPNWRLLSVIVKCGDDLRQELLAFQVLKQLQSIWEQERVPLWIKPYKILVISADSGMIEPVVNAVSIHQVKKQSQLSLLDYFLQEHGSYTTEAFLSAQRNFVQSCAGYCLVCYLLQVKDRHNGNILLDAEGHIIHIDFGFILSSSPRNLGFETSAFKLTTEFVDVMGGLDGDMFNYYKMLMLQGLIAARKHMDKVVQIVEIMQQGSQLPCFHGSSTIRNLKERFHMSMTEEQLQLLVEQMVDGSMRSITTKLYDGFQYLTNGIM
Sequence of UniProt Q9UPE1 (whole entry, looked up): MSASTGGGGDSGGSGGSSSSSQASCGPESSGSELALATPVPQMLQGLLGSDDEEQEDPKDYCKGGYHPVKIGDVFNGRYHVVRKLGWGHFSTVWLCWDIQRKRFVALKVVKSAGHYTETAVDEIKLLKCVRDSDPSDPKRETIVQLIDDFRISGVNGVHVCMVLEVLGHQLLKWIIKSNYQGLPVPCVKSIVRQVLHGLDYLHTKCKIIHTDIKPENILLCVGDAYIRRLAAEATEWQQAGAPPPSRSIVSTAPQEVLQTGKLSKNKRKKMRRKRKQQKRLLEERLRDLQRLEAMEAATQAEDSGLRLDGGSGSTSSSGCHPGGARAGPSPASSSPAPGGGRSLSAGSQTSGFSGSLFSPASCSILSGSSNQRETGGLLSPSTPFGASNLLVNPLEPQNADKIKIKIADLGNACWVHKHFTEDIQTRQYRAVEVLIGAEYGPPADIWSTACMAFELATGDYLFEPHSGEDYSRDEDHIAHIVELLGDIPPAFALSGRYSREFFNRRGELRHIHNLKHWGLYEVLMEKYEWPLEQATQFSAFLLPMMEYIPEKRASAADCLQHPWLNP
Sequence of UniProt Q99640 (whole entry, looked up): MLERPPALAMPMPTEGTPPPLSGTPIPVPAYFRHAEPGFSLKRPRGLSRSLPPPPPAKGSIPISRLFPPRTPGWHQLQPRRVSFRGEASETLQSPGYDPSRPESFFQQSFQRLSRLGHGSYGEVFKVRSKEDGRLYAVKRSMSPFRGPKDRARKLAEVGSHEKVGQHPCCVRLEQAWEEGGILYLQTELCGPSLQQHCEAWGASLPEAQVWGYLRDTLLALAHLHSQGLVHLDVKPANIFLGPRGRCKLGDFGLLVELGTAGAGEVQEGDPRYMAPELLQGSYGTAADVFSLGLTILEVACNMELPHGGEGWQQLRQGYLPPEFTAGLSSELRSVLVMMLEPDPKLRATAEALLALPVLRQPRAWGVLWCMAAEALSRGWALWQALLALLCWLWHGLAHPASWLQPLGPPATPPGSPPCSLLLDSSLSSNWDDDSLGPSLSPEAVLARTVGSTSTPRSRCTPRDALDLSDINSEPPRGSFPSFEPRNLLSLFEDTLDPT
Sequence of UniProt Q9Y6E0 (whole entry, looked up): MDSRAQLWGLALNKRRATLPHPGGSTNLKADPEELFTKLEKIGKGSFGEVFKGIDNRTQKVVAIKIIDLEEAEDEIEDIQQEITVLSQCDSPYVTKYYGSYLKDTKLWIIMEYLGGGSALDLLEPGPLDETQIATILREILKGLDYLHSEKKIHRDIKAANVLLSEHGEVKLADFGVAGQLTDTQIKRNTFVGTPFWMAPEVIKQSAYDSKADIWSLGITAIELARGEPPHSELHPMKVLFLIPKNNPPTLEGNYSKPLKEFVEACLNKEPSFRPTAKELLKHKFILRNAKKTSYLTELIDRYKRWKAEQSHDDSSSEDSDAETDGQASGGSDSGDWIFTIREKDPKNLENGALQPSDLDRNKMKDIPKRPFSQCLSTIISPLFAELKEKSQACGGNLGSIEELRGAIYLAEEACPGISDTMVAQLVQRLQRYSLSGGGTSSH

Block 1 — read-out: cell-free assay; method: competition with immobilised ligand; concentration: 1 µM
Compound: O=S(=O)(NC1CCC(c2cc(F)ccc2F)(S(=O)(=O)c2ccc(Cl)cc2)CC1)C(F)(F)F (centres unmarked)
The remaining binding was 82% (PI4KB (Homo sapiens, UniProt Q9UBF8)).
It gave 99% for remaining binding (STK24 (Homo sapiens, UniProt Q9Y6E0)).
For SRPK3 (Homo sapiens, UniProt Q9UPE1): remaining binding read 100%.
It gave 100% for remaining binding (PKMYT1 (Homo sapiens, UniProt Q99640)).

Block 2 — method: EMSA with sequencing; molecule type: double-stranded DNA, one strand shown; medium: in vitro; concentration: 10 and 20 nM; baseline: negative control set to 0; reading: higher = stronger binding
Target: Hepatocyte nuclear factor 3-alpha (Foxa1, Mus musculus, UniProt P35582, residues 1-468, full length assumed)
Setting: whole designed probe, mean of two concentrations, ends assumed
Constant ends, left off below: GTGAGCGGTGCCCATTGATGGGGAAC … TTTCACTGGGATCGTGGGGAC
Target sequence (chain): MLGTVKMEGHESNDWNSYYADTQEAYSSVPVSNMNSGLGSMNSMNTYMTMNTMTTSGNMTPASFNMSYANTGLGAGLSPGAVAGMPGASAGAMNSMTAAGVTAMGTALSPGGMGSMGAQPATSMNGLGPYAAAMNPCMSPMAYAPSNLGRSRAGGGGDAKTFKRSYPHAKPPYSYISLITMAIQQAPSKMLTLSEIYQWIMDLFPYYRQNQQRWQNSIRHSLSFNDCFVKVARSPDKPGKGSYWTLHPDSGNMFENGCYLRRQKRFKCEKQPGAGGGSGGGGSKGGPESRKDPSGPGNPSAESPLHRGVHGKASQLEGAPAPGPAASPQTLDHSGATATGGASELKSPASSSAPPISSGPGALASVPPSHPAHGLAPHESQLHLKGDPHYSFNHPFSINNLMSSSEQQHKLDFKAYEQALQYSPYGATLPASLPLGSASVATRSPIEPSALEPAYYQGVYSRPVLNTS
Under “normalised bound fraction”, `ATATGACAAAAGGCATGCATGTGACTTTATTTTTTCAATGGCTACTTTTCTTCTTAAATCAGGCTCCCTGATTTTAACTAAAAAATAAATAAGTAATCTAGAAAACACTGGGTTACTCTCAAAGAGATCACATTTTTAAAAACTCAAATGATTTCCTACAGGCAGTCTGTTTTGCAGTGTATTTTTTTTTCTT` is recorded as 0.0782 ratio.
Under “normalised bound fraction”, `CATTAGAGTCAAAGTTGTTAAGGGGAGCTAGTCATAGCTACCACGTGGCCAGGCATGTGGAACCAGACACCAGGCACACATCATGAATCATCATATTTACTTTAAATAATGCTGACAACCTAGTTCATAGTGACACACTACTTGAGATATATAGAATAACATTATTACCCAGTAAGTATGTGAACATTCCGAT` is recorded as 0.293 ratio.
For `GCATGAGACAGCATTTCTTCTTGTCCTCGGGGCCTGCAGGAAGTTTTTAAGTAATCTGCTTTTGTGCCTCTTCCAAATCTCCTCCTATGACCCTGTTTACCATACAACACAAGAAACAATCAATAAAAGTGGTTTGTGTTCGTGAGTGCCGTGTGTTTGACAAAGGCGTTGATAACTGAGAGCTGGTAGTGGA`, “normalised bound fraction” read 0.0969 ratio.
Under “normalised bound fraction”, `GGATTTTTGTTTTATCTGATTACAAAATAATACATGTTCATTAAAACACTTTAGAAGTCCCATCATGCAAGATTACTACTAAAAACCAAGATATATTTACTTTTATTTAAATATGTACAGTGTTTTACAAAATTGGGATGAATCATGATGTGCATGTATAATTTTGAATCCTCCTTTGGTCACTTAATGTCAG` is recorded as 0.299 ratio.
For `CATGTACAAACAAAATATGGGTTGTGTAATTTCAGTAATTCCATGTACAAGTTAAACACTCTGATATATTGCACAATTTGCATTTAAAATGTCGTAAACATGAATGCTAACAATCTTTTTTTTTTTTCCTGAGACGGAGTCTTGCTCTATCGCCCAGGCTGGAGTGCAGCGGCACAATCTCTGCTTACTGCCA`, “normalised bound fraction” read 0.206 ratio.
`TTGTTACAAATAATGAGAAAACATTTAGTGAAACACTTTAAACGTGTTTTTTTAAAAGAATATTTATTGTCTTATTGCTAAGAAAGAGTTCAGTGTAATCTTGTATCAGTTTATCACTTGCTCAGAAGAAATTACTTAAAAATAAATGAGGTTGGTTTAGACGTACTAGTCTATTTTTACTGAAACACAAGCA` — result for “normalised bound fraction”: -0.00221 ratio.
`CAAGTTTGTGGTCCAGGAGCAACAGGTTATGCCATACAGCCTAGGTGTGTAGTAGGCTCCATGACTCATATGTTTGTGTTGTACACTCTACAATGTTTGCACAATGATGAAATCCCATGTCACATTTCTCAGAACATACCCCTGTTGTTAAGCGATACATGACTGTACTTTTTTTAAAAAGTCCAAGGATATA`: “normalised bound fraction” 0.444 ratio.
Under “normalised bound fraction”, `ATACAGGTTTTATAACATATGTAGTTAAGGTTTCAAAAGTGAGATTATGTCTCAACTAACTATAACTGAAATAGAAGAGTGTATCTATTTCAATGTAAACATGTTGACTGATAATGAGAAAAATGATCCTTATAAAGAATAGCAAATCATGATCCTAAGACAGTAAGTGTCAAAGCTGATGGGAGGATGCTAT` is recorded as 0.244 ratio.

Other studies, line by line
`XRCC6 (Homo sapiens, UniProt P12956)`: cross-linked residues “E479 to E10” (SMC1A (Homo sapiens, UniProt Q14683); cross-linking MS; cell fractions; together with: DHSO).
For `CCC[C@H]1NC(=O)CSC[C@@H](C(=O)OCC)N(C)C(=O)[C@H](CC(C)C)NC(=O)[C@H](C)N(C)C(=O)[C@H](CC(C)C)NC(=O)[C@H](C)N(C)C(=O)[C@H]2CCCN2C(=O)[C@@H](CC(C)C)NC(=O)CN(C)C1=O`, the logD was 0.0634 (hydrocarbon/water).
Under cross-linked residues, `TTC7B (Homo sapiens, UniProt Q86TV6)` is recorded as “K427 to Y272” (HYCC1 (Homo sapiens, UniProt Q9BYI3); cross-linking MS; cell fractions; together with: DSSO).
For `PTH2R (Homo sapiens, UniProt P49190)`, cross-linked residues read “D303 to K628” (ARHGEF6 (Homo sapiens, UniProt Q15052); cross-linking MS; cell fractions; together with: DMTMM).
`FAM98A (Homo sapiens, UniProt Q8NCA5)` — result for interaction screen: “cross-linked” (RTCB (Homo sapiens, UniProt Q9Y3I0); cross-linking MS; hits only).
